Published values collected from several papers.
Protocols differ between the studies behind these lines.

| SMILES | test | system | setting | scale | endpoint | value |
| --- | --- | --- | --- | --- | --- | --- |
| COc1cc2c(Oc3ccc4[nH]c(C)cc4c3F)ccnc2cc1OCC1(N)CC1 |  | paediatric refractory sarcoma patients | 12 mg |  | grade 3 bone pain | 0% |
| COc1ccc(-c2c(-c3ccc(C#N)c(F)c3)nc(N3CCC(N)CC3)n(C)c2=O)cc1F | item: ≥1 grade 3-4 TRAE | relapsed/refractory MZL patients | oral, 60 mg, dose expansion |  | grade 3-4 TRAE incidence | 33% |
| NC(=O)[C@H]1CCN(c2ncnc(N)c2F)C[C@@H]1N1CCC[C@@H](Nc2cc(Cl)cc(C(F)(F)F)c2)C1=O |  | B-cell malignancy patients | oral, 82 mg twice daily, dose |  | grade ≥3 leukopenia | 0% |
| CC(=O)c1c(C)c2cnc(Nc3ccc(C4CCN(CCS(C)(=O)=O)CC4)cn3)nc2n(C2CCCC2)c1=O |  | HR+/HER2- advanced breast cancer patients | oral, dose not given |  | grade 3/4 neutropenia TEAE | 47.3 % patients |
| COc1nnc2ccc(N3CCC(c4ccc(OCCN5CCN(C)C(=O)[C@H]5C)cc4)CC3)nn12 |  | relapsed/refractory solid tumour or lymphoma patients | oral, dose not given |  | grade ≥3 TEAE | 55.9% |
| Cc1cc(C)c(CNC(=O)c2cc(Cl)c3c(c2C)O[C@@](C)([C@H]2CC[C@H](N(C)C)CC2)O3)c(=O)[nH]1 |  | relapsed/refractory NHL patients | dose not given, treatment-related TEAEs, safety set |  | grade 5 AST increased incidence | 0% |
| Cc1ncc2n1-c1ccc(Cl)cc1C(c1ccccc1F)=NC2 |  | healthy volunteers | oral, 5 mg, with: momelotinib 200 mg |  | grade 3 adverse events | 0% |
| Nc1nc2cc(-c3ccc4ncc(C(=O)N5CCOCC5)n4c3)ccc2o1 |  | advanced solid tumour patients | dose not given | reference: patients | grade ≥3 drug-related AEs | 22% |
| N[C@@H]1c2ccccc2OC12CCN(c1cnc3c(N4CCCc5ncccc54)n[nH]c3n1)CC2 |  | patients advanced metastatic solid tumours | oral, 60 mg once daily, pooled cohort |  | grade ≥3 decreased appetite TEAE | 0% |
| CC(C)n1c(C2CCNCC2)nc2c([N+](=O)[O-])c(Br)c(Br)cc21 | item: Leukocytosis | AML patients | dose not given, all doses |  | grade ≥3 adverse events | 12% |
| CCN1[C@@H](C(=O)NC23CCC(C(=O)O)(CC2)CC3)[C@H](c2cccc(Cl)c2F)[C@]2(C(=O)Nc3cc(Cl)ccc32)C12CCCCC2 |  | patients with advanced solid tumours | oral, dose not given, all doses |  | grade ≥3 Anemia incidence | 23.8% |

Repeated from above:
| SMILES | test | system | setting | scale | endpoint | value |
| --- | --- | --- | --- | --- | --- | --- |
| Nc1nc2cc(-c3ccc4ncc(C(=O)N5CCOCC5)n4c3)ccc2o1 |  | advanced solid tumour patients | dose not given | reference: patients | grade ≥3 drug-related AEs | 22% |
